Assay results gathered from unrelated publications.
Each numbered part is a random draw from the data of one study; scales do not carry over between parts.

Series 1 — method: universal PBM; molecule type: double-stranded DNA, one strand shown; matrix: in vitro; tested at: 600 nM; direction: higher = stronger binding
Target: Sal-like protein 4, full length isoform A (SALL4, Homo sapiens, UniProt Q9UJQ4, residues 1-1053)
Sequence of UniProt Q9UJQ4 (whole entry, looked up): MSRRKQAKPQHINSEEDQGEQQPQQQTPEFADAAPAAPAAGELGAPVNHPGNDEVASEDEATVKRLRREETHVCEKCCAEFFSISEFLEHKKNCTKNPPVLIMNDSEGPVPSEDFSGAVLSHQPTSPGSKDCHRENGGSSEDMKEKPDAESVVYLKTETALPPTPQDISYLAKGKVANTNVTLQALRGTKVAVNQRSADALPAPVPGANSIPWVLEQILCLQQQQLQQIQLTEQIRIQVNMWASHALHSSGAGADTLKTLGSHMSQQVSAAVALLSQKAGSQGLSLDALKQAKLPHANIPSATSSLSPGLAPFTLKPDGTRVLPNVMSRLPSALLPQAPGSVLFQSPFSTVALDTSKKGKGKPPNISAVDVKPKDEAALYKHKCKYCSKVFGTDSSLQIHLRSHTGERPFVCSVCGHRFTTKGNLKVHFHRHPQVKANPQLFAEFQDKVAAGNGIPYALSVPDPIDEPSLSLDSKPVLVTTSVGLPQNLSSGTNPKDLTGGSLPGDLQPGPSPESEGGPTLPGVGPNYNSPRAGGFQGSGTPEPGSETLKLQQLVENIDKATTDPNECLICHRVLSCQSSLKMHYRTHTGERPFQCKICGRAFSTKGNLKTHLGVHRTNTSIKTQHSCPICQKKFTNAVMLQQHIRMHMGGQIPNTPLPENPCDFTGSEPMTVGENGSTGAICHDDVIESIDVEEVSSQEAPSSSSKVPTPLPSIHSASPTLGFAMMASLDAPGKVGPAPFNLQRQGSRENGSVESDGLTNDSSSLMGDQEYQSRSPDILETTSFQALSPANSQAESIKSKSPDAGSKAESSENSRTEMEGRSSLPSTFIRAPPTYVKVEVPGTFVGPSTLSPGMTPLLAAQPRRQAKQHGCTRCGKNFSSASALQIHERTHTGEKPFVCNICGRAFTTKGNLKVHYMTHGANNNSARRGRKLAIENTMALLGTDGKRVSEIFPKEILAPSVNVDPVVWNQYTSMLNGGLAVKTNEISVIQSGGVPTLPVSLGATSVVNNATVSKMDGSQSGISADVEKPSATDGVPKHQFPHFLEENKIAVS
Setting: 8-mer, flanks averaged, mean of replicates
The E-score of `AATTGGCC` is reported as -0.0517.
For `CCCCCGGA`, the E-score was -0.3.
With `CACAATTC` the E-score was 0.183.
`AGTGTCCG` gave an E-score of -0.219.

Series 2 — method: Sort-seq; refers to: YFP reporter; matrix: E. coli; setting: PhoQ-PhoP variant library; added: 10 µM Mg2+; reference: high Mg2+ state; direction: higher = stronger signaling
Substance: PhoQ, residues 284 288 289 292 302 303 SSTLLI
For PhoP, residues 12 14 15 18 19 QYCSL (Escherichia coli, UniProt P23836): fold induction read 10.3.
The fold induction was 0.644 (PhoP, residues 12 14 15 18 19 STHWV (Escherichia coli, UniProt P23836)).
PhoP, residues 12 14 15 18 19 SHWTV (Escherichia coli, UniProt P23836) — fold induction: 0.928.

Series 3 — method: RNA Bind-n-Seq; molecule type: RNA; matrix: in vitro; tested at: 200 nM; setting: whole 134-nt RNA, ends assumed; added: 150 mM KCl; reference: input library; direction: higher = stronger binding
Target: Fragile X messenger ribonucleoprotein 1, C-terminal low-complexity region (Fmr1, Mus musculus, UniProt P35922)
`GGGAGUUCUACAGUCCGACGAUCCUCAAGUCCUGUGCUACACAUCGUAUGUACCGAAUCGGUGGGGUGGGGUGGGGAAAGUAUUAUGUUACGCCGUUCGGAUCUGCACUUCCAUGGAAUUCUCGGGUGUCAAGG` gave a log2 enrichment of 1.02.
The log2 enrichment of `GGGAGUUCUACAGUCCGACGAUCUCCUCAAGUCCUGUGCUACACAUCGUAUGUACCGAAUCGGAGGGAGGGAGGAAAGUAUUAUGUUACGCCGUUCGGAUCUGCACUUCCAGCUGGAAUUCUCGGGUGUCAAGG` is reported as -0.254.
`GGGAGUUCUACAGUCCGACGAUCACCAUGCAGGUGGGCAUCUUUGGCAAGUGGGGCAAGGGGGGGAUAGGGAGGGGGGUAACACUUUGGGAACAGGUGGUCCCAGGUCGUUUCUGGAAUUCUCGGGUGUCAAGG` gave a log2 enrichment of 0.718.
`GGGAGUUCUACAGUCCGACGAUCUGCCUCUGCGGCUAGCUGAUUUUGGGGUACUUCAUAGGAACGAGCUGUCUGGAGCACUCACAGGACUCACCCGGGUACGAAGAUUCCAACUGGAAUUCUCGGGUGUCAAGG` has a log2 enrichment of -1.45.
`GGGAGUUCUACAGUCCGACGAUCACCAUGCAGGUGGGCAUCUUUGGGAAGUGGGGCAAGAAAGGGAUAGGGAGGGGGGUAACACUUUGGGAACAGGUGGUCCCAGGUCGUUUCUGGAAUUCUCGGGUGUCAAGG` gave a log2 enrichment of 0.686.

Series 4 — method: RNA Bind-n-Seq; molecule type: RNA; matrix: in vitro; tested at: 365 nM; reference: no-protein control; direction: higher = stronger binding
Target: RNA binding protein fox-1 homolog 2, RRM domain, GST-SBP tag (RBFOX2, Homo sapiens, UniProt O43251-10, residues 100-194)
Setting: natural RNA segment, single round, ends assumed
Target sequence (chain): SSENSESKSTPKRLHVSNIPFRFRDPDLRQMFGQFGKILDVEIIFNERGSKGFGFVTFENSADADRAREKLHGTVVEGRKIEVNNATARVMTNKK
Under “RBNS enrichment (R)”, `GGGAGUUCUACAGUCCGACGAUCUUUUAUUUAACUUGGGGAUGGAAUGGGGAUAGCAUACAUUUUAUUUGUACAAUAUUUAACAAUCACUUAUCCAAGGUGGGGUUUUAUGGGGAUUUUAAGCUUUCUGUUAAUGGAAUUCUCGGGUGCCAA` is recorded as 0.724.
`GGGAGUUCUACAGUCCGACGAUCAGGCACUAAGAUAAAGUCUAGUCCAGUUCUCAUUUUAAAAGUCAACUAGCUCUAAAGCUAGUUAGUGACAAAGUUGGAUACCAAAAAUAGCCAACACUAUGACAUAAAAAUGGAAUUCUCGGGUGCCAA` — result for “RBNS enrichment (R)”: 0.271.
Under “RBNS enrichment (R)”, `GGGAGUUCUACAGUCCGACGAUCGCCAGACAGAGAGUAUUGCUGGAGGGUGAGAGAAUUGUGGAGACCAACUACCACAUAGCAAGAGCCCAGCUCUUGGGAGCAUUGAGAUGUAAGCUCAGGGUUACACAGUUUGGAAUUCUCGGGUGCCAA` is recorded as 0.254.
Under “RBNS enrichment (R)”, `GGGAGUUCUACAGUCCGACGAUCUCAAAACUUAGUGACUGUGGGUCACAUUCCCACUGUUGAAACUGCUAAAUUGUGACCUGGGGAAGGACUUUGCUUUAGUCGGUGAUGUUCGUACUUGGUGACAAAUUGAGUGGAAUUCUCGGGUGCCAA` is recorded as 0.525.
`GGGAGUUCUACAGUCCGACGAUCCUGCCUGGAGAAGAUGCAUGCCAGUGCUCCUGAAGCCAGGCUGCUUCUCUUAAGAGAGGCUGUGGGUAUGCUGGAGCUGGCCUUCCGGUCAGGCUCUGGGCAGCAGGUGUUGGAAUUCUCGGGUGCCAA`: “RBNS enrichment (R)” 0.488.
`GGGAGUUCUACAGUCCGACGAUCACAUGGUGAAACCCUAUCUCCACUAAAAAUACAAAAUUAGCUGGGUGUGGUGGCGCAUGCCUGUAAUCCCAGCUACUUGGGAGACUGAGGCAAGAGAAUCACUUGAACCCUGGAAUUCUCGGGUGCCAA` — result for “RBNS enrichment (R)”: 0.526.

Some of these lines once more (series 3):
`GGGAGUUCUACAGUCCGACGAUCACCAUGCAGGUGGGCAUCUUUGGCAAGUGGGGCAAGGGGGGGAUAGGGAGGGGGGUAACACUUUGGGAACAGGUGGUCCCAGGUCGUUUCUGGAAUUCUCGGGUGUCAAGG` gave a log2 enrichment of 0.718.
`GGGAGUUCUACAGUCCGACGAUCUGCCUCUGCGGCUAGCUGAUUUUGGGGUACUUCAUAGGAACGAGCUGUCUGGAGCACUCACAGGACUCACCCGGGUACGAAGAUUCCAACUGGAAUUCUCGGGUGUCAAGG` has a log2 enrichment of -1.45.
